Assay results pooled from the literature.
Lines come from different studies, so protocols differ. Values joined by “and” are separate records of one study, mostly repeats; a detail may differ. ± marks the error that the study gave.

COc1cc(CNC(=O)C[C@H](C)CCC=C(C)C)ccc1OCc1cn(-c2ccc(C#N)cc2)nn1
growth percent (HOP-62; SRB; 10 µM, 48 h): 88.6%

O=Cc1c(O)ccc2ccccc12
log2 fold change (HUVEC; RNA sequencing, measured: TRIB3; 75 µM, 24 h; reference: DMSO): 3.55

Nc1c(S(=O)(=O)O)cc(Nc2cccc(S(N)(=O)=O)c2)c2c1C(=O)c1ccccc1C2=O
mRNA level (primary mouse articular chondrocytes; real-time PCR, measured: Phlpp1; 25 µM): decreased

COc1cc(CNC(=O)C[C@H](C)CCC=C(C)C)ccc1OCc1cn(-c2ccc(Cl)cc2Cl)nn1
growth percent (HOP-62; SRB; 10 µM, 48 h): 11.3%

O=C(NCCCCc1ccccc1)n1c(=O)oc2cc(-c3ccc(F)cc3)ccc21
dihydroceramide d18:0/16:0 level (SW-403 and RAW264.7; 0.1 to 20 µM, 3 h): increased

O=C1OCC2=C1C(c1cccc(Br)c1)C1=C(N2)C(=O)c2ccccc2C1=O (stereo not shown)
early apoptotic cells (SK-LU-1 cells; annexin V/PI; 0.08 µM, 24 h): 6.05%

CC(Cc1ccc(Cl)cc1)=C(c1ccc(Cl)cc1)c1ccc(OCCN(C)C)cc1
GI50 (NCI-60 cell lines; NCI five-dose screen; median over 60 lines): 4.34 µM

CC(C)=CCc1c(O)cc(CO)cc1O
glucose consumption (HepG2, palmitic acid-induced insulin resistance; 12.5 µM, 24 h): 4.79 ± 0.65 mM

Cc1csc(CCCNc2nc3c(c(=O)[nH]2)[n+](C)cn3C2OC(COP(=O)(O)OP(=O)([O-])OP(=O)(O)OCC3OC(n4cnc5c(=O)[nH]c(N)nc54)C(O)C3O)C(O)C2O)n1 (stereo not shown)
relative protein expression (HEK293 transfected with capped mRNA; luciferase expression; reference: m7GpppG-capped mRNA): 1.42 and 1.4

CCN(CC)CC(=O)N1CCN(c2nc(NCc3nc4cc(Cl)c(Cl)cc4[nH]3)c3ncn(CC)c3n2)CC1
cyclin K degradation (MDA-MB-231; western blot; 50 nM, 2 h): ~100%

O=C(/C=C/c1cccc(S(=O)(=O)NCc2ccc(F)cc2)c1)NO
relative potency (MOPC-315; cell growth; 24 h; reference: belinostat): 0.695

CC1CCCN(CCCNC(=O)C2=Cc3sc4c(c3CS2)CCCC4)C1 (stereo not shown)
esterified cholesterol (COLO 320; 20 µM, 48 h; reference: vehicle): 1.6 fold

COc1ccc([C@@H]2CC(=O)c3c(O)cc(O[C@@H]4O[C@H](CO[C@@H]5O[C@@H](C)[C@H](O)[C@@H](O)[C@H]5O)[C@@H](O[C@H]5O[C@H](CO)[C@@H](O)[C@H](O)[C@H]5O)[C@H](O)[C@H]4O)cc3O2)cc1O
cell count (MRC5; trypan blue exclusion; 100 µg/mL, 72 h): 14600 ± 582

COc1cc(CNC(=O)C[C@H](C)CCC=C(C)C)ccc1OCc1cn(-c2cccc(Cl)c2)nn1
growth percent (SF-295 CNS cancer cells; SRB; 10 µM, 48 h): 66.8%

COCCNCC(=O)N(CCCCN)CC(=O)N(CC(=O)N(CC(=O)N(CCCCN)CC(=O)N[C@@H](CCCCN)C(=O)N[C@H](CCCCN)C(=O)N[C@@H](CCSC)C(=O)NCCCC[C@H](NC(=O)[C@H](CCSC)NC(=O)[C@@H](CCCCN)NC(=O)[C@H](CCCCN)NC(=O)CN(CCCCN)C(=O)CN(C(=O)CN(Cc1ccc2c(c1)OCO2)C(=O)CN(CCCCN)C(=O)CNCCOC)[C@H](C)c1ccccc1)C(N)=O)[C@H](C)c1ccccc1)Cc1ccc2c(c1)OCO2
onset concentration (H358; gene expression decrease, qRT-PCR, measured: SOX2; 6 days): 10 µM

COc1cc(CNC(=O)C[C@H](C)CCC=C(C)C)ccc1O
growth percent (HCT-15; SRB; 10 µM, 48 h): 101%

CC(=O)OC[C@H]1O[C@@H](Sc2nc3c4cnn(C(=O)CNc5ccc(C)cc5)c4ncn3n2)[C@H](OC(C)=O)[C@@H](OC(C)=O)[C@@H]1OC(C)=O
early apoptotic cells (HCT cells; annexin V-FITC/PI flow cytometry; concentration not given, 48 h): 21.5%

CC(=O)Nc1ccc(OC(=O)CCC(=O)[O][Pt-2]23([O]C(=O)CCC(=O)Oc4ccc(NC(C)=O)cc4)([NH2+][C@@H]4CCCC[C@H]4[NH2+]2)[O]C(=O)C(=O)[O]3)cc1
IFN-beta level (4T1; supernatant; concentration not given, 24 h; reference: untreated): 3.1 fold

COc1cc(CNC(=O)C[C@H](C)CCC=C(C)C)ccc1OCc1cn(-c2ccc(Cl)c(Cl)c2)nn1
growth percent (Malme-3M melanoma cells; SRB; 10 µM, 48 h): 77.4%
